{"data": "Experimental data pooled from the literature", "note": "Parts stem from different laboratories: compare values within a part only. Changes are numbered by the printed parent chain."}
{"data": "Series 1", "target": "ABI1, truncated, D143A, DHFR fusion (Arabidopsis thaliana)", "method": "DHFR PCA, deep sequencing", "matrix": "yeast", "setting": "methotrexate growth selection, single substitutions", "with": "(+)-ABA 0 µM", "relative to": "wild-type fitted maximum", "reading": "higher = stronger binding", "starting sequence": "PYL1, truncated, DHFR fusion (Arabidopsis thaliana); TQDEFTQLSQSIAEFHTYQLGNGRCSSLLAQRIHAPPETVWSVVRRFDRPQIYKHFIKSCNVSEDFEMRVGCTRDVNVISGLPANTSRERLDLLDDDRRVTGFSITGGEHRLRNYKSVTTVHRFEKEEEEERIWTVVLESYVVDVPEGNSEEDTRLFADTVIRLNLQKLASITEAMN"}
{"Change": "D159V", "relative binding score [%]": -3.7}
{"Change": "I12C", "relative binding score [%]": 1.01}
{"Change": "S140K", "relative binding score [%]": 0.381}
{"Change": "V44C", "relative binding score [%]": -0.883}
{"Change": "I57C", "relative binding score [%]": -1.89}
{"Change": "R88P", "relative binding score [%]": -1.82}
{"Change": "A13S", "relative binding score [%]": 23.1}
{"Change": "D144Q", "relative binding score [%]": -4}
{"Change": "F157V", "relative binding score [%]": 8.22}
{"Change": "S27E", "relative binding score [%]": 3.62}
{"Change": "E127V", "relative binding score [%]": 25}
{"Change": "R132F", "relative binding score [%]": -3.89}
{"Change": "T173G", "relative binding score [%]": -4.65}
{"Change": "S59I", "relative binding score [%]": 3.64}
{"Change": "L91T", "relative binding score [%]": -1.98}
{"Change": "D48M", "relative binding score [%]": -0.518}
{"data": "Series 2", "target": "Interferon regulatory factor 5, full length, phosphomimetic (IRF5, Homo sapiens, UniProt Q13568-2, residues 1-514, K96S/S451D/S453D/S456D/S462D)", "method": "protein-binding microarray", "form": "double-stranded DNA, one strand shown", "matrix": "in vitro", "concentration": "250 nM", "setting": "60-bp whole probe", "with": "salmon DNA 0.4 mg/ml", "relative to": "random background probes", "reading": "higher = stronger binding", "constant ends, left off below": "GCCTAGCAC … GTCTTGATTCGCTTGACGCTGCTG"}
{"Strand": "TTAGGTTTCGACTATCAGTTAGTGCTA", "log fluorescence [z-score]": 8.36}
{"Strand": "GACGGACGGGGTTTCGGGACGTGCTAG", "log fluorescence [z-score]": 1.46}
{"Strand": "GACGGTTTCGGGTTTCGGGCCGTGCTA", "log fluorescence [z-score]": 7.31}
{"Strand": "TTCGGTTTCCTTTTCCTTTAGTGCTAG", "log fluorescence [z-score]": 3.05}
{"Strand": "TCATCTTCAGGTTCTCCCACTGTGCTA", "log fluorescence [z-score]": 0.326}
{"Strand": "GGCGGACTGGACACTGGGGACGTGCTA", "log fluorescence [z-score]": -0.768}
{"Strand": "TTAGGTCTCCTTTCCCTTTAGTGCTAG", "log fluorescence [z-score]": 0.407}
{"Strand": "TCAGTTATCACTTCCAAACTGTGCTAG", "log fluorescence [z-score]": 1.68}
{"Strand": "TTAGGGTTCCTTCTCCTTTAGTGCTAG", "log fluorescence [z-score]": -0.17}
{"Strand": "TACGGTTTCGACACTGGGGACGTGCTA", "log fluorescence [z-score]": 4.65}
{"Strand": "TTGGAACTGGGGACTGGATTAGTGCTA", "log fluorescence [z-score]": -0.524}
{"Strand": "GAACATATTTGTTTCCATTTGTGCTAG", "log fluorescence [z-score]": 1.35}
{"data": "Series 3", "target": "RNA binding protein fox-1 homolog 2, RRM domain, GST-SBP tag (RBFOX2, Homo sapiens, UniProt O43251-10, residues 100-194)", "method": "RNA Bind-n-Seq", "form": "RNA", "matrix": "in vitro", "concentration": "365 nM", "setting": "natural RNA segment, single round, ends assumed", "relative to": "no-protein control", "reading": "higher = stronger binding", "constant ends, left off below": "GGGAGUUCUACAGUCCGACGAUC … UGGAAUUCUCGGGUGCCAA", "Target sequence (chain)": "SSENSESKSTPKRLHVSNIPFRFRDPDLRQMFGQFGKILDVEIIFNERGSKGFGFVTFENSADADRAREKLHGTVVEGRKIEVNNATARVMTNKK"}
{"Strand": "ACUGACGUUUAUGCCUGGUGAUAGCAUGUCCCGAGAAGCAUGGACAUGGAGUUUUGUUUUAAUAAACAGAAAAAAAAAACCCGACUGAUUUUUAAUGUCUUGGAUUUGGU", "RBNS enrichment (R)": 7.3}
{"Strand": "GCUGGGGAUUGGAUGAAAGUCAAAGGUUGUCUACUUUAAGAAAAUAAAAUACCCUGAAUGGAGCCCAGCAUUGUCCCAGUGUGCUAUGUGUGUAGCUGACCUGUGGCUGG", "RBNS enrichment (R)": 1.15}
{"Strand": "ACUGGGAGCUUGCACUAUGCAGCUCCAGUUUCCUGCAGUGAUCAGGGUCCUGCAAGCAGUGGGGAAGGGGGCCAAGGUAUUGGAGGACUCCCUCCCAGCUUUGGAAGCCU", "RBNS enrichment (R)": 0.974}
{"Strand": "CAAGACGCUAGACAUUCCAGAAUUAUUUUCCUUGGCCAUCCAAGUGAAGUAGAAGUAGAUUGUUGGAUUGCAAAGAAAAUGAUAAAGAUUCCCUAAAGGAAUUUAUAAGC", "RBNS enrichment (R)": 0.49}
{"Strand": "AGGGAAUAGUUUAUAUGGACCUUUUUGUCAACAAUAAGCUAUUGUAAAGAUAUUUAAUGUUCUGUUUAUUUAAUUGCUUCUUAAAUUGAUAUGAUUUUCUUAUAAAACAG", "RBNS enrichment (R)": 0.499}
{"Strand": "GUAUUUUGAGUGUUCUUCUUUCUUAGACCCACCCGCGGGAACCGUUCACAGGUACCCUCCCUCGGGCCCUUUUGAUUCUGGGAGUUAGGUUGUGUUUUAUGUUCUUAGAG", "RBNS enrichment (R)": 0.919}
{"Strand": "UUUGAAGAUCUGUCCAUAUUCAGGAAUCUGAGAGUGUUAAAAAAAGGUACCAAUCAUUGAUUUUUCUUUUGUAAACUAAAACGUUUAAAAUAAAAUAGCAUUUACAGUUU", "RBNS enrichment (R)": 0.582}
{"Strand": "UGGGAGCUGGCUGCCCCACCCACACUCUCCAUCCCAUUCAAGACUGUGCCAUACCAGCUGAUCUGUAGGCCUUUUCUAUGAGUCCUACUCCAUCAGGGUUUCUGCUGUUA", "RBNS enrichment (R)": 0.27}
{"Strand": "CCAGGGUCAUCACAUGUCAAAGCAAUAUUGGGGAUUGCUAGGCUUCUUUCAACUUACUUUUCACAGUAGGUUUCAGGGGAACAAAGCCAUGCCUGCUGCCUGCCUCUCUC", "RBNS enrichment (R)": 0.849}
{"Strand": "CCUGUCACAGCGGCUGCAAACAGUGGCAUCCUUGAGCAGCAAGAUGGGCGCCUGGGUGUGGUCUUGUUAAAUCGGUGUCGCACAUUUUAAUCGGUAAUCUGCUGGCUUGU", "RBNS enrichment (R)": 0.876}
{"Strand": "AGGUGGAGACUACAAGGAGACUGGGCGAACCACACCGUCUCCCUGCAUGGCCUUCCCUUCCUCUAGACAGAGGAGGGCUCCCAGCAGCCUUUCUAGUUUGGCAGUGCGAC", "RBNS enrichment (R)": 0.539}
{"Strand": "GAACAGCACGUGGUGGGGUCCUGCUUGUGUGCUCUGCGUUCCUCUGUGGCGUGGCCAGGCCGGGGCAUGGCUCUUACCCGGGGAGUGGUGGGCAUCUCGAUGCUUCUUUG", "RBNS enrichment (R)": 8.35}
{"data": "Series 4", "target": "CCND1, cyclin fold, Cln2 fusion (human)", "method": "yeast growth competition, sequencing", "matrix": "yeast", "setting": "weak parent motif", "relative to": "not given", "reading": "higher = stronger binding", "starting sequence": "CDC6 docking peptide (human); TLKGRRLVFDNQL; partner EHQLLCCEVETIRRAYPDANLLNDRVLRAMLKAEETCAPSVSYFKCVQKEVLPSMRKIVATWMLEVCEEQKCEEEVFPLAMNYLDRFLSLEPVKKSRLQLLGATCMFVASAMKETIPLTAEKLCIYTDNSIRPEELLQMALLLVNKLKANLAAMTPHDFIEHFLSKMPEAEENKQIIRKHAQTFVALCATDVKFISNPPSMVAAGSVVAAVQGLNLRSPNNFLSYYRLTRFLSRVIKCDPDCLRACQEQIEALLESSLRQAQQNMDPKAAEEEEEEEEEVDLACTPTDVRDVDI"}
{"Change": "TLTGRRLVFDNQL [K3T]", "normalised enrichment score": 0.789}
{"Change": "TLWGRRLVFDNQL [K3W]", "normalised enrichment score": -0.156}
{"Change": "TLKCRRLVFDNQL [G4C]", "normalised enrichment score": 1.27}
{"Change": "TLKGRRCVFDNQL [L7C]", "normalised enrichment score": -0.411}
{"Change": "TLKGRRLVFDNQF [L13F]", "normalised enrichment score": 0.429}
{"Change": "TLKGRRLVFDQQL [N11Q]", "normalised enrichment score": 0.544}
{"Change": "TLKGKRLVLDNQL [R5K F9L]", "normalised enrichment score": 0.327}
{"Change": "TLKGLRLVFDNQL [R5L]", "normalised enrichment score": 0.34}
{"Change": "TLKGRFLVFDNQL [R6F]", "normalised enrichment score": 0.139}
{"Change": "ELKGRRLVFDNQL [T1E]", "normalised enrichment score": 0.843}
{"Change": "TLKGRRLLFDNQL [V8L]", "normalised enrichment score": 0.562}
{"Change": "TLKGRRLVFDNGL [Q12G]", "normalised enrichment score": 1.19}
{"Change": "TLKGRRLVYDNQL [F9Y]", "normalised enrichment score": -0.151}
{"Change": "TLKGRRLVFDNQT [L13T]", "normalised enrichment score": 0.332}
{"Change": "TLKGQRLVFDNQL [R5Q]", "normalised enrichment score": 0.154}
{"data": "Series 5", "target": "PABPC1L2, full length, GST fusion (mouse, UniProt A0ABA7IW68)", "method": "RNAcompete", "form": "RNA", "matrix": "in vitro", "concentration": "20 nM", "setting": "7-mer, probes averaged, single round", "relative to": "mean of 7-mers", "reading": "higher = stronger binding", "Residues (chain)": "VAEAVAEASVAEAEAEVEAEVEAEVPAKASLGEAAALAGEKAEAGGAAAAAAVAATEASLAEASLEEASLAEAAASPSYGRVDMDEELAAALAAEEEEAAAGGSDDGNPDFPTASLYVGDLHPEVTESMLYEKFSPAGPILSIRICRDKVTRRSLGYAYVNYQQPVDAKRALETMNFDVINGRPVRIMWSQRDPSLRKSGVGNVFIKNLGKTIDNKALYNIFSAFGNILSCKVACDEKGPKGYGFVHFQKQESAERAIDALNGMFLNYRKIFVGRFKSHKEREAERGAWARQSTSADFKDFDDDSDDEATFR"}
{"Strand": "GCGUCAC", "7-mer Z-score": -0.124}
{"Strand": "CUCAUAU", "7-mer Z-score": -0.287}
{"Strand": "CGGGCUA", "7-mer Z-score": 0.198}
{"Strand": "UGCGCAU", "7-mer Z-score": -0.28}
{"Strand": "UCAAGUC", "7-mer Z-score": -0.313}
{"Strand": "AAUCAUA", "7-mer Z-score": 0.294}
{"Strand": "UAACAGC", "7-mer Z-score": -0.159}
{"Strand": "CCUGUAC", "7-mer Z-score": -0.376}
{"Strand": "CCCCUUG", "7-mer Z-score": -0.46}
{"Strand": "GGAUGCU", "7-mer Z-score": -0.0192}
{"Strand": "UAUCCCG", "7-mer Z-score": -0.358}
{"Strand": "UAUCACG", "7-mer Z-score": -0.197}
{"Strand": "CCUCAUA", "7-mer Z-score": -0.204}
{"Strand": "UAGCCUA", "7-mer Z-score": -0.224}
{"Strand": "CUGGUCC", "7-mer Z-score": -0.166}
{"Strand": "GUUUCCU", "7-mer Z-score": -0.407}
{"Strand": "GCUUUGU", "7-mer Z-score": -0.383}
{"Strand": "CUUGCCA", "7-mer Z-score": -0.199}
{"Strand": "AGCGCUC", "7-mer Z-score": -0.306}
{"Strand": "UGCACCU", "7-mer Z-score": -0.277}
{"note": "A few entries again (series 2):"}
{"Strand": "GACGGTTTCGGGTTTCGGGCCGTGCTA", "log fluorescence [z-score]": 7.31}
{"Strand": "GAACATATTTGTTTCCATTTGTGCTAG", "log fluorescence [z-score]": 1.35}
{"Strand": "TCAGTTATCACTTCCAAACTGTGCTAG", "log fluorescence [z-score]": 1.68}
{"Strand": "GACGGACGGGGTTTCGGGACGTGCTAG", "log fluorescence [z-score]": 1.46}
{"Strand": "TTGGAACTGGGGACTGGATTAGTGCTA", "log fluorescence [z-score]": -0.524}
